Measurements collected from several papers.
A part holds a random share of what one study measured.

Set 1 — method: protein binding microarray; form: double-stranded DNA, one strand shown; matrix: in vitro; concentration: not given; relative to: not given; reading: higher = stronger binding
Target: Histone acetyltransferase KAT6A, winged helix 2, GST fusion (KAT6A, Homo sapiens, UniProt Q92794, residues 85-181)
Setting: 8-mer, flanks averaged, mean of 2 arrays, mostly near background
Target sequence (chain): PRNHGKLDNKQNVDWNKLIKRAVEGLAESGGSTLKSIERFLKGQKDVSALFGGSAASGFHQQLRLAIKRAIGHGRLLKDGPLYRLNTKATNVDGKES
`ACGTAAAA` has an E-score of -0.0516.
The E-score of `AAGATATA` is reported as -0.0466.
`GCTGGGGA` has an E-score of -0.0725.
The E-score of `AGGAATCC` is reported as 0.0476.

Set 2 — method: Sort-seq; item: YFP reporter; matrix: E. coli; setting: PhoQ-PhoP variant library; together with: 10 µM Mg2+; relative to: high Mg2+ state; reading: higher = stronger signaling
Substance: PhoQ, residues 284 288 289 292 302 303 SSCCRF
It gave 13.6 for fold induction (PhoP, residues 12 14 15 18 19 TQALL (Escherichia coli, UniProt P23836)).
PhoP, residues 12 14 15 18 19 NYFRM (Escherichia coli, UniProt P23836) — fold induction: 16.1.
PhoP, residues 12 14 15 18 19 QYFSL (Escherichia coli, UniProt P23836) — fold induction: 5.73.

Set 3 — method: protein-binding microarray; form: double-stranded DNA, one strand shown; matrix: in vitro; concentration: 2540 nM top; setting: 60-bp whole probe; together with: salmon DNA 0.4 mg/ml; relative to: random background probes; reading: higher = stronger binding
Target: Interferon regulatory factor 3, full length, phosphomimetic (IRF3, Homo sapiens, UniProt Q14653, residues 1-427, S386D/S396D/S398D/S402D/T404D/S405D)
Target sequence (chain): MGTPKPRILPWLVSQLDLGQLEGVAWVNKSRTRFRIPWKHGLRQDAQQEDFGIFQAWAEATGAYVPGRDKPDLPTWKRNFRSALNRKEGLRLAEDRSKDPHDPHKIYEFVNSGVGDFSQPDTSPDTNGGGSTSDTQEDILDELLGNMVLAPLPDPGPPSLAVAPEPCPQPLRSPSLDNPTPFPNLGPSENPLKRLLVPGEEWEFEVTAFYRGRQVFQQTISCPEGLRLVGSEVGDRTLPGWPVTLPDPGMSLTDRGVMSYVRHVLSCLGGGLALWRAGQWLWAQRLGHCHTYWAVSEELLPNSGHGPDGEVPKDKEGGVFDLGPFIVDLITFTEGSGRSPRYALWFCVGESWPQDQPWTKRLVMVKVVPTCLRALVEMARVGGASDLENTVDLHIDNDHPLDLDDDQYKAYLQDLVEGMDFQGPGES
Under “fitted relative affinity”, `GCCTAGCACGACGATACCAGTTTCGAGACGTGCTAGGTCTTGATTCGCTTGACGCTGCTG` is recorded as 2.35 z-score.
`GCCTAGCACTTAGGTTTCCTACTGCTTTTGTGCTAGGTCTTGATTCGCTTGACGCTGCTG`: “fitted relative affinity” 4.51 z-score.
`GCCTAGCACGACGGACTGGACAATCGGGACGTGCTAGTCTTGATTCGCTTGACGCTGCTG`: “fitted relative affinity” -0.455 z-score.

Set 4 — method: universal PBM; form: double-stranded DNA, one strand shown; matrix: in vitro; concentration: 600 nM; reading: higher = stronger binding
Target: Sal-like protein 4, full length isoform A (SALL4, Homo sapiens, UniProt Q9UJQ4, residues 1-1053)
UniProt Q9UJQ4, sequence (whole entry, looked up): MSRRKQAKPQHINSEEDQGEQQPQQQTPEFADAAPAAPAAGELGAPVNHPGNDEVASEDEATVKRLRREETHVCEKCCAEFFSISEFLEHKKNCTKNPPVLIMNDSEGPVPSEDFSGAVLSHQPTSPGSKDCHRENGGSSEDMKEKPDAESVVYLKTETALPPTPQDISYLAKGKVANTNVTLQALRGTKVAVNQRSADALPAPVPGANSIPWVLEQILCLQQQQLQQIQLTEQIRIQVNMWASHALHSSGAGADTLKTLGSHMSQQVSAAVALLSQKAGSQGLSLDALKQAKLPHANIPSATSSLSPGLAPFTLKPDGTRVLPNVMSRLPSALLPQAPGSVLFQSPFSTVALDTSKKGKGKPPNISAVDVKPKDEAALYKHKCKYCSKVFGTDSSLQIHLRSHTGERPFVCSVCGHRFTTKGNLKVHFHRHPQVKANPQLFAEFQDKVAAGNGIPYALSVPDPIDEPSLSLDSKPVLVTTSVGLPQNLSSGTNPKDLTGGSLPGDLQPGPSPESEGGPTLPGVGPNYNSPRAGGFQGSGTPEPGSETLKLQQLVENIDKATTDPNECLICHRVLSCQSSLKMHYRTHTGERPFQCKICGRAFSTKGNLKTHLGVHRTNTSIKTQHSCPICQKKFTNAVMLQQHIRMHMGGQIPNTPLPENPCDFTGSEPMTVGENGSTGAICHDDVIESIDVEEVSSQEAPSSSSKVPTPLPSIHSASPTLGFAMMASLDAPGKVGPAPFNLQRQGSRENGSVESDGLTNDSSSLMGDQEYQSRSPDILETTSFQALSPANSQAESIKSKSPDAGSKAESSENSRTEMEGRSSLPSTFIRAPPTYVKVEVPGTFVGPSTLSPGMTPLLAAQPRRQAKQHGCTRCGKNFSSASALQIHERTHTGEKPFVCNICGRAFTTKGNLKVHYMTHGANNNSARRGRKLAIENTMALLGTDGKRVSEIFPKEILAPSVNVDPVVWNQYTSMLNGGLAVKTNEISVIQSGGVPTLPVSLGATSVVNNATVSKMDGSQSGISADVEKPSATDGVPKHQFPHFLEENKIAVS
Setting: 8-mer, flanks averaged, mean of replicates
With `ATGACCCC` the E-score was -0.16.
The E-score of `CCTCGCAG` is reported as -0.189.
`TCTCGGCA` gave an E-score of -0.235.
